Measurements collected from several papers.
Numbered parts are unrelated; each lists some results of a single study. Substitutions count along the parent as printed.

Series 1
Target: CRIPT, C-terminal peptide
Method: DHFR complementation, deep sequencing
Medium: yeast
Setting: single substitutions, model-inferred values
Relative to: wild type
Reading: higher = weaker binding
Starting sequence: ERBIN, PDZ domain 1 (human); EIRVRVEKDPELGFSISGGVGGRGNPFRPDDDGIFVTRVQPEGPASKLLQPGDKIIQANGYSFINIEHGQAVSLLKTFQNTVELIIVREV; partner TKNYKQTSV
| Substitution | binding free energy change [kcal/mol] |
| --- | --- |
| L74T | 0.00428 |
| K8R | 0.373 |
| S62M | 0.0812 |
| V4N | 1.58 |
| N25H | 0.957 |
| I55G | 0.3 |
| R38I | 0.126 |
| I64Q | -0.0274 |

Series 2
Target: Phosphate system positive regulatory protein PHO4, full length, GST-tagged (PHO4, Saccharomyces cerevisiae, UniProt P07270, residues 1-312)
Method: competition protein-binding microarray
Molecule type: double-stranded DNA, one strand shown
Medium: in vitro
Tested at: 2 µM
Setting: whole 60-bp probe, lowest competitor level
With: Cbf1 competitor, 0.05 µM
Reading: higher = stronger binding
All sequences stand within: … GTCTTGATTCGCTTGACGCTGCTG
Residues (chain): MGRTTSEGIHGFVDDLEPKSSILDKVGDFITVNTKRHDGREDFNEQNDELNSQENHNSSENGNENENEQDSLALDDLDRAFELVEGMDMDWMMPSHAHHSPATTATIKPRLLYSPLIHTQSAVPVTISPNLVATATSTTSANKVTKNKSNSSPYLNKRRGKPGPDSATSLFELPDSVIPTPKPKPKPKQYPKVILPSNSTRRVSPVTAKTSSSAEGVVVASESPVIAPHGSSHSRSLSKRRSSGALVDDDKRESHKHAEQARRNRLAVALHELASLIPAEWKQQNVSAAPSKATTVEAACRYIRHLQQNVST
| Oligonucleotide | fluorescence intensity [a.u.] |
| --- | --- |
| TGTTATTATTGACAACATGTGTAAGTTGGTCGAAGA | 9210 |
| ATATGTGTGCGGTTCCACGGGCAGTCGTTTATGTTG | 8190 |
| CTTACCGTCCACTTTAACGTGACGGAGCATCAAGAT | 5310 |
| TACAGAACCCAGATACACATGTAAACAACGAGCATC | 7800 |
| GTCTTGTCTCATTGCTGGGTGGGTGTCCCCACTTCA | 5600 |
| TATTAGATAACTTAGCACGTGAAAAAGAAACGTTTT | 16500 |
| ATGGCACTCATTGATGGCGTGATGGAGCAGAACCTC | 5510 |
| AAATTACTAAGTTTTCACGTGAGATACCCCGTATGA | 10600 |

Series 3
Target: TAR DNA-binding protein 43, full length, His tag (TARDBP, Homo sapiens, UniProt Q13148, residues 1-414)
Method: RNA Bind-n-Seq
Molecule type: RNA
Medium: in vitro
Tested at: 20 nM
Setting: 6-mer, flanks averaged, single round
With: 150 mM KCl
Relative to: input library
Reading: higher = stronger binding
| Oligonucleotide | 6-mer enrichment (R) |
| --- | --- |
| CAAAAU | 0.631 |
| AACAAA | 0.734 |
| AAACCG | 0.636 |
| UGUGUC | 0.862 |
| AGCUCG | 0.758 |
| UCCUUG | 0.705 |
| CACUGA | 0.645 |
| GGGCAA | 2.35 |

Single results of other studies
Starting sequence: viral docking peptide; KGVKRKLFAEDSS
| Substitution | target | test | test system | setting | how to read | quantity | result |
| --- | --- | --- | --- | --- | --- | --- | --- |
| K6W | CCNA2, cyclin fold, Cln2 fusion (human) | yeast growth competition, sequencing | yeast | strong parent motif | relative to: not given, higher = stronger binding | normalised enrichment score | 1.07 |

Repeated from above (series 1):
| Substitution | binding free energy change [kcal/mol] |
| --- | --- |
| V4N | 1.58 |
| N25H | 0.957 |
| I55G | 0.3 |
| R38I | 0.126 |
